Measured values collected from several papers.
A part holds a random share of what one study measured.

Study 1
Target: Ras GTPase-activating protein-binding protein 1, full length (G3BP1, Homo sapiens, UniProt Q13283)
UniProt Q13283, sequence (whole entry, looked up): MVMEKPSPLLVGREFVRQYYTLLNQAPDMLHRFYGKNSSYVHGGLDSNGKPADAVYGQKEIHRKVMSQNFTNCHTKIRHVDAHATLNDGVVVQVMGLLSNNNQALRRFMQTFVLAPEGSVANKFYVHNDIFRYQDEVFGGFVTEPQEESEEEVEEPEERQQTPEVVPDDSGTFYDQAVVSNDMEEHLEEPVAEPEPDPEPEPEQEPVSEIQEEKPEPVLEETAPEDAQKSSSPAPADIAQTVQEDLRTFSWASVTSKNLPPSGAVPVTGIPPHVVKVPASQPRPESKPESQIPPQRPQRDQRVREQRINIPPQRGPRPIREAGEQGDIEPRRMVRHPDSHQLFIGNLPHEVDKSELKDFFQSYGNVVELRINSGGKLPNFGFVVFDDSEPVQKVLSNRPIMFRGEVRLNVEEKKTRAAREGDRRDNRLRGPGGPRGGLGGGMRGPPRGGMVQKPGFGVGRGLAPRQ
Technique: RNA Bind-n-Seq
Molecule type: RNA
Medium: in vitro
Tested at: 200 nM
Setting: whole 134-nt RNA, ends assumed
With: 150 mM KCl
Baseline: input library
Reading: higher = stronger binding
Quantity: log2 enrichment
GGGAGUUCUACAGUCCGACGAUCCACAGACAACACGCACCCACAAAGACACAGAGGGAAGGGGUUGGGAUGGGGACAGGGUGCACAGCAGGGCGGGGUAGGACCCCAGCCCCUUGGAAUUCUCGGGUGUCAAGG: 1.89
GGGAGUUCUACAGUCCGACGAUCCUGAAGAGUCUGAGGAUGCCCAAUCACAGAGCCAAGCAGAUGAAGAGGAGGAAGAUGAUGAUUUUGGGGUGGAGUACUUGCUUGCCAGGGUGGAAUUCUCGGGUGUCAAGG: 0.179
GGGAGUUCUACAGUCCGACGAUCCUCAAGUCCUGUGCUACACAUCGUAUGUACCGAAUCGGGAGGGUUUGGGUGGGAAAGUAUUAUGUUACGCCGUUCGGAUCUGCACUUCCAUGGAAUUCUCGGGUGUCAAGG: 1.23

Study 2
Target: Max-binding protein MNT, bHLH-zipper, MAX partner unstated (MNT, Homo sapiens, UniProt Q99583, residues 220-300)
Technique: protein-binding microarray
Molecule type: double-stranded DNA, one strand shown
Medium: in vitro
Tested at: not given
Setting: k-mer, scored over probes, only values ≥0.25
Reading: higher = stronger binding
Quantity: E-score
Construct (chain): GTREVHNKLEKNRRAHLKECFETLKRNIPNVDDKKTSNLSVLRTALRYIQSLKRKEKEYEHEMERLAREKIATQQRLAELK
ACATGCTC: 0.401
CCGCACCA: 0.262
CCGCCCCG: 0.355

Study 3
Target: Sal-like protein 4, full length isoform B (SALL4, Homo sapiens, UniProt Q9UJQ4-2, residues 1-616)
Technique: universal PBM
Molecule type: double-stranded DNA, one strand shown
Medium: in vitro
Tested at: not given
Setting: 8-mer, flanks averaged, mean of replicates
Reading: higher = stronger binding
Quantity: E-score
Residues (chain): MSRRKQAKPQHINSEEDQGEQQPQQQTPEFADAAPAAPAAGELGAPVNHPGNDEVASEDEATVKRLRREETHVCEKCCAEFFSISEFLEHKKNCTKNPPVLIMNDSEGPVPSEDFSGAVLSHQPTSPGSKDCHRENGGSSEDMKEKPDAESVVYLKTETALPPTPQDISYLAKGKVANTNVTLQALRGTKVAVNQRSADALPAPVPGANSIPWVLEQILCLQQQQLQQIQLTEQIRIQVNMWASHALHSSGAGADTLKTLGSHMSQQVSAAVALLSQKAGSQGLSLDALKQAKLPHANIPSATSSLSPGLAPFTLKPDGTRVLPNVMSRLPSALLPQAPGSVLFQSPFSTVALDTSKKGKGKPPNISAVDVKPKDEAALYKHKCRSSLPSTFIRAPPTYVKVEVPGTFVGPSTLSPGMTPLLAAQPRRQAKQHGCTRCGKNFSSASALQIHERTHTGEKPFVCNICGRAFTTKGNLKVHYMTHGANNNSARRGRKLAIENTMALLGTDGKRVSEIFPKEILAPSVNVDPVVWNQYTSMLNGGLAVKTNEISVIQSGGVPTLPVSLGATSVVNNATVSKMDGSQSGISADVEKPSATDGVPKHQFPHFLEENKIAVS
GAAGAATC: -0.128
GCTGAGTA: -0.0759
CGTCCGAA: -0.224
CTGCCAGC: -0.131
CCTTACTC: -0.0506

Single results of other studies
PhoQ, residues 284 288 289 292 302 303 AGGCYF
fold induction (PhoP, residues 12 14 15 18 19 QWHVF (Escherichia coli, UniProt P23836); Sort-seq, measured: YFP reporter; E. coli; PhoQ-PhoP variant library, with: 10 µM Mg2+; baseline: high Mg2+ state, higher = stronger signaling): 13.1

Excerpt of the above (study 1):
GGGAGUUCUACAGUCCGACGAUCCUGAAGAGUCUGAGGAUGCCCAAUCACAGAGCCAAGCAGAUGAAGAGGAGGAAGAUGAUGAUUUUGGGGUGGAGUACUUGCUUGCCAGGGUGGAAUUCUCGGGUGUCAAGG: 0.179
GGGAGUUCUACAGUCCGACGAUCCACAGACAACACGCACCCACAAAGACACAGAGGGAAGGGGUUGGGAUGGGGACAGGGUGCACAGCAGGGCGGGGUAGGACCCCAGCCCCUUGGAAUUCUCGGGUGUCAAGG: 1.89
